Published values pooled from the literature.
Lines come from different studies, so protocols differ.
Chain of UniProt Q8WU08 (whole entry, looked up): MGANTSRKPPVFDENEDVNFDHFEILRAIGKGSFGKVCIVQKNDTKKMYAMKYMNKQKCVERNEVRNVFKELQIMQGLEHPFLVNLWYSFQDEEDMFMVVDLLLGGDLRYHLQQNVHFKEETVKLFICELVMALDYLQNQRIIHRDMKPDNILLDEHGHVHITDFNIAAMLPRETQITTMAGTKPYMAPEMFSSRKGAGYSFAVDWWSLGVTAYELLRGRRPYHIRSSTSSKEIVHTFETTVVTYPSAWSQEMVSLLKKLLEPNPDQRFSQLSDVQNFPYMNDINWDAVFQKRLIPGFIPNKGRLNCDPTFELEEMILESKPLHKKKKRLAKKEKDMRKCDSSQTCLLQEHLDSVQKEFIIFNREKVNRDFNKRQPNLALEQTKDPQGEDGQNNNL
Chain of UniProt O94768 (whole entry, looked up): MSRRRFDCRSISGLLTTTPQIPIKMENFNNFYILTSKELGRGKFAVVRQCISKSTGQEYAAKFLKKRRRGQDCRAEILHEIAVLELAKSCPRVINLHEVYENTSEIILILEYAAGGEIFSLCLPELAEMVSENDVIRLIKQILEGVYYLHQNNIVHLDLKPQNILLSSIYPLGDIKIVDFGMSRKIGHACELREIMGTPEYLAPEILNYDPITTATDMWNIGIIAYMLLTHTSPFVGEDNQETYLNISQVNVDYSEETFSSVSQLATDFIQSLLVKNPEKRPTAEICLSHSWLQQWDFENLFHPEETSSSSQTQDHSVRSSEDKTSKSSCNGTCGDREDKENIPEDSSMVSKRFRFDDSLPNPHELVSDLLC
Chain of UniProt P00519 (whole entry, looked up): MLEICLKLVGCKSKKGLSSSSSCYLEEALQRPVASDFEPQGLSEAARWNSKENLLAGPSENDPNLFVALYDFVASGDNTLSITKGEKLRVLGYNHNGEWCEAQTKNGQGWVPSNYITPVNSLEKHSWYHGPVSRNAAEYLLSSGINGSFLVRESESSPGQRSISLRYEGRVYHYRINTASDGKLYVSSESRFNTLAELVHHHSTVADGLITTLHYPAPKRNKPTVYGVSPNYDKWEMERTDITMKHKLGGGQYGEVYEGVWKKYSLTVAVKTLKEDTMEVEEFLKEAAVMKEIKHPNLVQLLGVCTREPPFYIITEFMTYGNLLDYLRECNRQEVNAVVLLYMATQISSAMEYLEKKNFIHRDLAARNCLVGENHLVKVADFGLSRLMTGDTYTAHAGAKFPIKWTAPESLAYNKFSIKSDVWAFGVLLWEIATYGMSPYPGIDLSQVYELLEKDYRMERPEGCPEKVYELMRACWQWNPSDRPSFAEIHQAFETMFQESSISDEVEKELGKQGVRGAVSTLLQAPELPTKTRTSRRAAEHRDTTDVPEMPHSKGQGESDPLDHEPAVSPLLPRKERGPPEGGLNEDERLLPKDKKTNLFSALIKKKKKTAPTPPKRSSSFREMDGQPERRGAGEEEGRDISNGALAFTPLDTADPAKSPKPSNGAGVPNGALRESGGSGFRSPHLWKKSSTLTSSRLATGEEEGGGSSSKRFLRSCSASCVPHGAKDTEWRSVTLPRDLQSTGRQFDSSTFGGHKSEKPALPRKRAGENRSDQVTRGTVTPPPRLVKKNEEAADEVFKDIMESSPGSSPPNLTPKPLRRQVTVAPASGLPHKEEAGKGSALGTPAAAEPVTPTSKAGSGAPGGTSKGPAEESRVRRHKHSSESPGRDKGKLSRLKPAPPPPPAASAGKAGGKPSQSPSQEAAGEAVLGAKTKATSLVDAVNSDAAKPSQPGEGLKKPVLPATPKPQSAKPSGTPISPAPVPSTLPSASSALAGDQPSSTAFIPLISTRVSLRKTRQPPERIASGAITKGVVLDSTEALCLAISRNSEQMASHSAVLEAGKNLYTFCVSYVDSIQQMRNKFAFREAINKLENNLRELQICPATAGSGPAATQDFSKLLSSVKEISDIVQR

SMILES	tested on	assay	test system	setting	measurement	value
N.N.[Cl][Pt][Cl]	JeKo-1	cell growth or viability, ATP luminescence		72 h	IC50	2.52 µM
N.N.[Cl][Pt][Cl]	A2780cis	cell growth or viability, MTT		72 h	IC50	11.6 µM
S=P1(C2CCCCC2)CCCCC1	SW480	cell growth or viability, MTT		72 h	IC50	> 100 µM
[2H]c1c([2H])c([C@]2([2H])CCCN2C(=O)C(C)(C)Oc2ccc3cn[nH]c3c2)c([2H])c([2H])c1C([2H])([2H])[2H]	Serine/threonine-protein kinase 32A (STK32A, Homo sapiens, UniProt Q8WU08)	binding, competition with immobilised ligand		1 µM	remaining binding	97%
N.N.[Cl][Pt][Cl]	SH-SY5Y	cell growth or viability, MTT		24 h	IC50	130 µM
COc1ccc(-c2c(-c3ccc(C#N)c(F)c3)nc(N3CCC(N)CC3)n(C)c2=O)cc1F	HEK293	cell growth or viability, resazurin			IC50	12 µM
COc1cc(C(=O)c2nc(-c3cccc4[nH]ccc34)c[nH]2)cc(OC)c1OC	COS-7	cell growth or viability			IC50	0.0042 µM
Cc1cc(N(CCO)CCO)ccc1C(=O)O	A498	cell growth or viability			IC50	> 10 µg/mL
COC(=O)c1cc(-c2cccc(NC(=O)Nc3cccc(Br)c3)c2)on1	Pseudomonas aeruginosa	microbial growth, broth dilution	ATCC27853		MIC	> 64 µg/mL
COc1cc2cc(c1Cl)N(C)C(=O)C[C@H](OC(=O)[C@H](C)N(C)C(=O)CCS)[C@]1(C)O[C@H]1[C@H](C)[C@@H]1C[C@@](O)(NC(=O)O1)[C@H](OC)/C=C/C=C(\C)C2	MCF7	cell growth or viability, SRB		48 h	IC50	0.0525 µM
Cc1nn(C)cc1-c1nc2c(N3CCN(Cc4ccc(Cl)cc4)CC3)c(Cl)cnc2[nH]1	Serine/threonine-protein kinase 17B (STK17B, Homo sapiens, UniProt O94768)	binding, competition with immobilised ligand		1 µM	remaining binding	21%
CC(=O)N[C@H]1[C@@H](O[C@@H]2O[C@H](C[C@@H](O)[C@H]3O[C@@H](n4ccc(=O)[nH]c4=O)[C@H](O)[C@@H]3O)[C@H](O)[C@H](O)[C@H]2NC(=O)/C=C/CCCCCCCCCC(C)C)O[C@H](CO)[C@@H](O)[C@@H]1O	Vero	cell growth or viability, WST-1			IC50	0.45 µM
COC(=O)c1cc(-c2cccc(NC(=S)Nc3cc(C(F)(F)F)cc(C(F)(F)F)c3)c2)on1	Mycobacteroides chelonae	microbial growth, broth dilution	ATCC35752	48 h	MIC	> 64 µg/mL
N.N.[Cl][Pt][Cl]	SW480	cell growth or viability, MTT		72 h	IC50	10.4 µM
Cc1cc(N(CCO)CCO)ccc1C=O	786-0	cell growth or viability			IC50	> 10 µg/mL
S=P1(c2ccccc2)CCCCC1	SW480	cell growth or viability, MTT		72 h	IC50	> 100 µM
Nc1ncc(-c2nc(N3CCOCC3)nc(N3CCOCC3)n2)c(C(F)F)n1	Tyrosine-protein kinase ABL1, phosphorylated (ABL1, Homo sapiens, UniProt P00519)	binding, competition with immobilised ligand		10 µM	remaining binding	61%
